Measurements collected from several papers.
Each numbered part is a random draw from the data of one study; scales do not carry over between parts. Numbers after ± are the reported error. Values after ≈ are worked out from the molar mass of the structure shown.
Chain of UniProt P34913 (whole entry, looked up): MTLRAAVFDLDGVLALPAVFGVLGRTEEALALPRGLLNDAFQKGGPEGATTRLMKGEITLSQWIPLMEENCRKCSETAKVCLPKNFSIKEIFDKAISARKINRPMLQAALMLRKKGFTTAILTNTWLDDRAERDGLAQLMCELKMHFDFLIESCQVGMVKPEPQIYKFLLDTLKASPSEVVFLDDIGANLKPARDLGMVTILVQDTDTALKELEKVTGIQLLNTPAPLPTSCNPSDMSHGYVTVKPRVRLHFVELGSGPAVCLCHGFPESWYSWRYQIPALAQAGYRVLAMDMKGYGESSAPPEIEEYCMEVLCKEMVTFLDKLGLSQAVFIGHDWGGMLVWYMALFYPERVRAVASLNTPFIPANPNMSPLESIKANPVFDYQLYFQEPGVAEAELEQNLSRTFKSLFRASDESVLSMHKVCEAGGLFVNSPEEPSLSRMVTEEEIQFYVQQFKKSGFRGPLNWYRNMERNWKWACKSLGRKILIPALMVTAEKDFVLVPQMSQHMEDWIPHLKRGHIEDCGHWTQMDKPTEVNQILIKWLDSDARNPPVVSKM

Study 1
Structure (SMILES): Cc1cc(OCc2nnc(SC3CCCC3)n2-c2cccnc2)ccc1-c1ccc(S(C)(=O)=O)cc1
| cell line | CC50 [µM] |
| --- | --- |
| SNB-75 | 5.59 |
| UACC-257 | > 100 |
| Malme-3M | 5.69 |

Mixed results
| Substance | tested on | assay | system | setting | measurement | value |
| --- | --- | --- | --- | --- | --- | --- |
| Cc1ccccc1S(=O)(=O)Nc1c(N2CCC(NC(=O)Nc3ccc(Cl)c(F)c3)CC2)c(=O)c1=O | Bifunctional epoxide hydrolase 2 (EPHX2, Homo sapiens, UniProt P34913) |  |  |  | IC50 | 0.0062 ± 0.001 µM |
| pyc (Rhizobium etli, UniProt Q2K340) | CC(=O)OP(=O)(O)O | steady-state kinetics |  | pH 7.5, 25 °C | kcat/Km | 28.3 ± 0.833 M⁻¹ s⁻¹ |
| Cc1cccc(CN2CCC(C(=O)Nc3ccc(-c4cnc5ccccc5c4)cc3)CC2)c1 |  |  | sodium phosphate buffer, 1% DMSO | pH 7.4 | solubility | 31 to 63 µM (≈ 13.5 to 27.4 µg/mL) |

Repeated from above (mixed results):
| Substance | tested on | assay | system | setting | measurement | value |
| --- | --- | --- | --- | --- | --- | --- |
| Cc1ccccc1S(=O)(=O)Nc1c(N2CCC(NC(=O)Nc3ccc(Cl)c(F)c3)CC2)c(=O)c1=O | Bifunctional epoxide hydrolase 2 (EPHX2, Homo sapiens, UniProt P34913) |  |  |  | IC50 | 0.0062 ± 0.001 µM |
